Results of several laboratories.
Compare with care: the assays were run in different laboratories.
Method: steady-state kinetics
B1: TenA_E (Arabidopsis thaliana, UniProt Q9ASY9); chain MEKRGVIDTWIDKHRSIYTAATRHAFVVSIRDGSVDLSSFRTWLGQDYLFVRRFVPFVASVLIRACKDSGESSDMEVVLGGIASLNDEIEWFKREGSKWDVDFSTVVPQRANQEYGRFLEDLMSSEVKYPVIMTAFWAIEAVYQESFAHCLEDGNKTPVELTGACHRWGNDGFKQYCSSVKNIAERCLENASGEVLGEAEDVLVRVLELEVAFWEMSRGGQ
B2: Pck1 A467G (Rattus norvegicus, UniProt P07379); chain MPPQLHNGLDFSAKVIQGSLDSLPQEVRKFVEGNAQLCQPEYIHICDGSEEEYGRLLAHMQEEGVIRKLKKYDNCWLALTDPRDVARIESKTVIITQEQRDTVPIPKSGQSQLGRWMSEEDFEKAFNARFPGCMKGRTMYVIPFSMGPLGSPLAKIGIELTDSPYVVASMRIMTRMGTSVLEALGDGEFIKCLHSVGCPLPLKKPLVNNWACNPELTLIAHLPDRREIISFGSGYGGNSLLGKKCFALRIASRLAKEEGWLAEHMLILGITNPEGKKKYLAAAFPSACGKTNLAMMNPTLPGWKVECVGDDIAWMKFDAQGNLRAINPENGFFGVAPGTSVKTNPNAIKTIQKNTIFTNVAETSDGGVYWEGIDEPLAPGVTITSWKNKEWRPQDEEPCAHPNSRFCTPASQCPIIDPAWESPEGVPIEGIIFGGRRPAGVPLVYEALSWQHGVFVGAAMRSEATAGAEHKGKVIMHDPFAMRPFFGYNFGKYLAHWLSMAHRPAAKLPKIFHVNWFRKDKNGKFLWPGFGENSRVLEWMFGRIEGEDSAKLTPIGYVPKEDALNLKGLGDVNVEELFGISKEFWEKEVEEIDKYLEDQVNADLPYEIERELRALKQRISQM
B3: UCK2 (Homo sapiens, UniProt Q9BZX2); chain MAGDSEQTLQNHQQPNGGEPFLIGVSGGTASGKSSVCAKIVQLLGQNEVDYRQKQVVILSQDSFYRVLTSEQKAKALKGQFNFDHPDAFDNELILKTLKEITEGKTVQIPVYDFVSHSRKEETVTVYPADVVLFEGILAFYSQEVRDLFQMKLFVDTDADTRLSRRVLRDISERGRDLEQILSQYITFVKPAFEEFCLPTKKYADVIIPRGADNLVAINLIVQHIQDILNGGPSKRQTNGCLNGYTPSRKRQASESSSRPH
B4: enzyme (Bifidobacterium adolescentis, UniProt A1A3M6); chain MIRRYLNTVEESKMISGAGAMNPVCPREDGRLEWGNGVVSMLFDTAGDSPVRLCNVAGRGMGPIGGRVTDDGRTVLERDPRPIVEVRAANTGSQDNRLTLIATVAGSVLRFVSAAASEPEEGSAEPYRLEIVQFASYAELEPHGRAFEPTAAERAEAAAQPSPETVRHADATAGLVVTSVFEAFPGLSAVRTYTRLSSARPLPIEAVSSLNLTVPMRVNCGKIDHSRVFWGDSAWAVENDWRSRPLRDVSVRNRNQVINPGQSSSRFAMSSASTWSTGVHEPAGIVQVEGSRRQSRDFSVMWQIEHNGPWEWEIGEDDPGLHISAFGPEYQDHHWYTELGEGHDFESVPVSFAISAGDWQQSVAEMTLQRRALRAAKARELGRSEQFERTQGLVIYNDYMNTLFGDPRLEKELPLVEGAARVGADIFCIDAGWYDSTDGGWWDMVGEWQASTNRFGEAGLKGLADTIRAHGMGLGLWLEPEVIGVKSPLAQSLPDDAFFQRHGVRVCDSGRYLLDFRSPAAREHVTRTVNRLIDDFGAVFFKFDYNTVPGVGTDLDAESAGAGLLGHCRAYLDWLDDLRRRHPDVMIENCGSGAMRADYAQLQRLDLQSTSDQCDPLIYAAIAAGAGLTILPEQQGNWGYAQQEMDDETAVFTLATGILGRLYLSGFIDRMDEHRLALVRDAVALHRRVLTEQQELVPFWPARLPDFDGDWLVVGLRHPSFLPSEDDDSCDYIIVWRRGGTPSVNVPLSEDCHIEQIFPNPAVPEHAPDAKPWTVERMDPETVRLNAATSKQPSARIFAIR
B5: FNO G29W (Thermobifida fusca, UniProt Q47RA9); chain MIMIMASKSSPHDLPDVSGLSIAVLGGTWDQGRGLARRFAMAGHEVILGSRSAERAQAVAAELGEGLPVRGMDNAGAAEAGDVVIVAVPWDGHRALLESLKDVLAGKIVVDCVNPLGFDKRGAYALPVEEGSAAEQAAAILPDSRVVAAFHHVSAVLLLDPEVEKVDLDVLVLGDDREATDVVRALAARIPGVRGVYGGRLRNAHQVEAFTANLISINRRYKAHAGIRITDI
Sequence of UniProt O34714 (whole entry, looked up): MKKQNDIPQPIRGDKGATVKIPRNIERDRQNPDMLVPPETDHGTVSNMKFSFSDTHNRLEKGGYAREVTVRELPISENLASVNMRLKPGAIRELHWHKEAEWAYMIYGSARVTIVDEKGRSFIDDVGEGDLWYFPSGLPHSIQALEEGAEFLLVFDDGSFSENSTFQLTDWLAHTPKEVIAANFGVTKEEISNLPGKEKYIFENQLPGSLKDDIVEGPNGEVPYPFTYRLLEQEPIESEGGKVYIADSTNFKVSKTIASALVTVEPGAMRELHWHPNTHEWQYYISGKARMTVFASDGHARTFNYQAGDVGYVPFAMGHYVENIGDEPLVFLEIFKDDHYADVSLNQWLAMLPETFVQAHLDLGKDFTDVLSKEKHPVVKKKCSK
Sequence of UniProt O48715 (whole entry, looked up): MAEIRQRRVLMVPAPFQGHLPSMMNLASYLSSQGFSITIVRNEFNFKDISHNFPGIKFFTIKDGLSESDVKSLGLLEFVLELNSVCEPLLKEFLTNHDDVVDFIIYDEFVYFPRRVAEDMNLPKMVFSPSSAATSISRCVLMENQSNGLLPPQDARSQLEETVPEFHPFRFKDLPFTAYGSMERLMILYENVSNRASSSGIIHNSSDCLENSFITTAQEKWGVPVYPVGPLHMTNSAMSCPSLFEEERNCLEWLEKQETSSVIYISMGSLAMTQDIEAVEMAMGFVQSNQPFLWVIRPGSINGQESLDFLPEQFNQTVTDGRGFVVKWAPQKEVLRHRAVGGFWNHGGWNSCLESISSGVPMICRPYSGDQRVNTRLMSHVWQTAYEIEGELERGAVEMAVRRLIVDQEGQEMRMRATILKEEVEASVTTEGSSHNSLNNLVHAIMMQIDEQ
Sequence of UniProt P9WEW1 (whole entry, looked up): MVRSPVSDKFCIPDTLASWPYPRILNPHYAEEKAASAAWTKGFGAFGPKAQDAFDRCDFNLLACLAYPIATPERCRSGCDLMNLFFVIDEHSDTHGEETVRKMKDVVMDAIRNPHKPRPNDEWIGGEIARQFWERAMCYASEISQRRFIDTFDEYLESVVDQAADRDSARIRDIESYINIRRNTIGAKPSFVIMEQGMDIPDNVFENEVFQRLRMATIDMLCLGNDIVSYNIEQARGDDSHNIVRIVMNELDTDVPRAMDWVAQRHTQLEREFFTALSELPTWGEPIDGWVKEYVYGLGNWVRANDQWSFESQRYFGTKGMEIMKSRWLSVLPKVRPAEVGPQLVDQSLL

| Substance | substrate | conditions | Km [µM] |
| --- | --- | --- | --- |
| enzyme (Phocaeicola vulgatus, UniProt A6KWY5) | O=C(O)[C@@H](O)[C@H](O)[C@H](O)C(=O)CO | pH 7, 30 °C | 550 |
| B1 (TenA_E) | Cc1ncc(CNC=O)c(N)n1 | pH 7.5, 30 °C, formylamino-HMP amidohydrolase activity, with: 450 mM glycine betaine | 70 |
| oxdC (Bacillus subtilis, UniProt O34714) | O=C(O)C(=O)O | pH 4.2, 25 °C | 18000 |
| protein (UniProt M4ZR24) | Cc1cn([C@H]2C[C@H](O)[C@@H](CO)O2)c(=O)[nH]c1=O | phosphorolysis, single substrate, with: phosphate | 120 |
| protein (Stereum hirsutum, UniProt P9WEW1) | CC(C)=CCC/C(C)=C/CC/C(C)=C/CO[P@@](=O)(O)OP(=O)(O)O | pH 8, NaCl 200 mM, with: FPP 1–100 µM | 1.91 |
| PGDH2 (Oryza sativa, UniProt B7FAD2) | O=C(O)[C@H](O)COP(=O)(O)O | pH 9, 25 °C, NaCl 0.1 M, apparent, with: NAD+ | 1210 |
| enzyme (Babesia duncani, UniProt A0AAD9PLN9) | NCCCCN | pH 7.5, 37 °C | 32.1 |
| enzyme (Arabidopsis thaliana, UniProt O48715) | O=c1ccn([C@@H]2O[C@H](CO[P@@](=O)(O)O[P@@](=O)(O)O[C@H]3O[C@H](CO)[C@@H](O)[C@H](O)[C@H]3O)[C@@H](O)[C@H]2O)c(=O)[nH]1 | pH 7.5, 25 °C | 25.8 |
| B2 (Pck1 A467G) | C=C(OP(=O)(O)O)C(=O)O | pH 7.5, 25 °C | 63 |
| B3 (UCK2) | Nc1ccn([C@@H]2O[C@H](CO)[C@@H](O)[C@H]2O)c(=O)n1 | pH 7.2, 25 °C, KCl 100 mM, with: ATP 100–200 µM | 42 |
| B4 (enzyme) | O=[N+]([O-])c1ccc(O[C@H]2OC[C@H](O)[C@H](O)[C@H]2O)cc1 | pH 5, 40 °C | 1480 |
| B5 (FNO G29W) | CC(=O)c1ccc[n+](Cc2ccccc2)c1 | pH 8, 25 °C, with: F420H2 40 µM | 7400 |
